Measurements of several laboratories.
Lines come from different studies, so protocols differ.
UCHL1: Ubiquitin carboxyl-terminal hydrolase isozyme L1 (UCHL1, Homo sapiens, UniProt P09936)
Chain of UniProt P09936 (whole entry, looked up): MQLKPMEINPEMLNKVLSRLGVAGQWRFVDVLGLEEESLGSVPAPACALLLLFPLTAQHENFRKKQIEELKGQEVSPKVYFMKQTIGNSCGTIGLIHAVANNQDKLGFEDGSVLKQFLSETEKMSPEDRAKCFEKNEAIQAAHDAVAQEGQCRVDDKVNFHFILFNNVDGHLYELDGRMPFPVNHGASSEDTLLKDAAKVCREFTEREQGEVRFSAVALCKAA
Chain of UniProt P11388 (whole entry, looked up): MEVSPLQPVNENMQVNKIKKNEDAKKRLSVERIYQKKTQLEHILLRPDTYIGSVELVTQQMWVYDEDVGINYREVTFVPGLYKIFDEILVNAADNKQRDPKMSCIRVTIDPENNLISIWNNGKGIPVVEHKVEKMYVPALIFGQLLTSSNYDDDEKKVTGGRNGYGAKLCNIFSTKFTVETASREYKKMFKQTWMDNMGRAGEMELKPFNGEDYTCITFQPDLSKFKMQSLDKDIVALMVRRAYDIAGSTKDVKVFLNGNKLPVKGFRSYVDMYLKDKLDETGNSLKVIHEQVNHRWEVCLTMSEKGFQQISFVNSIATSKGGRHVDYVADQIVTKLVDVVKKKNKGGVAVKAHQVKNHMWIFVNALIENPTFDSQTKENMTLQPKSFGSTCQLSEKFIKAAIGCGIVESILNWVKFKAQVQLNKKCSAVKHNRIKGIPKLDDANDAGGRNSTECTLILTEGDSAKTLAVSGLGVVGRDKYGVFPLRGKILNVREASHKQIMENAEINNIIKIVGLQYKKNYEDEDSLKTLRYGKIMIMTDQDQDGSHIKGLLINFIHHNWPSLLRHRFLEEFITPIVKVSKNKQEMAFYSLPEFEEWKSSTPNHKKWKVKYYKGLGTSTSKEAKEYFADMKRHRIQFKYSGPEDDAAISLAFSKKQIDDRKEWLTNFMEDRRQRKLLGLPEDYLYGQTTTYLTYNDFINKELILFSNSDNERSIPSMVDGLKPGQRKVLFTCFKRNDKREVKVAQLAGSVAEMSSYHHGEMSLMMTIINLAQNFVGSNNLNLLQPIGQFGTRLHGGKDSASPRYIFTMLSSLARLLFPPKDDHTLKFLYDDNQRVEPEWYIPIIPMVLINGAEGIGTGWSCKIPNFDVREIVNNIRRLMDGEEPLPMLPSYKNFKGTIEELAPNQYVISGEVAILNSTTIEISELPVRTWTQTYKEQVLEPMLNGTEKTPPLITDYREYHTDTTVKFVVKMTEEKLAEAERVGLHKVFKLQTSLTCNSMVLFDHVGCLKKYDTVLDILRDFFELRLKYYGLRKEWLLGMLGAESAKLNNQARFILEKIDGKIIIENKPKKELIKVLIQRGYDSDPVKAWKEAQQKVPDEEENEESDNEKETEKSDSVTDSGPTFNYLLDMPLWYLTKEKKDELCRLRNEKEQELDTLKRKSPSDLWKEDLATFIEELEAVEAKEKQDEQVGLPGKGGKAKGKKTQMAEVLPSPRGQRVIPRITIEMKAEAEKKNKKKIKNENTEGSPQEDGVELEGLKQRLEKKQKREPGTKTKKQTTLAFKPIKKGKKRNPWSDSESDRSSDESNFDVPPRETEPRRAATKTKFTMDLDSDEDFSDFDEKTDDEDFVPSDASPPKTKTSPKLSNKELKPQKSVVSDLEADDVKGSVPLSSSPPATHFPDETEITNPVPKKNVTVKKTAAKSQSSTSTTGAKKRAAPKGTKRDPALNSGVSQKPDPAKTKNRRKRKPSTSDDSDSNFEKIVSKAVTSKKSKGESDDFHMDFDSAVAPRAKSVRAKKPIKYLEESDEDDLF
Chain of UniProt Q07794 (whole entry, looked up): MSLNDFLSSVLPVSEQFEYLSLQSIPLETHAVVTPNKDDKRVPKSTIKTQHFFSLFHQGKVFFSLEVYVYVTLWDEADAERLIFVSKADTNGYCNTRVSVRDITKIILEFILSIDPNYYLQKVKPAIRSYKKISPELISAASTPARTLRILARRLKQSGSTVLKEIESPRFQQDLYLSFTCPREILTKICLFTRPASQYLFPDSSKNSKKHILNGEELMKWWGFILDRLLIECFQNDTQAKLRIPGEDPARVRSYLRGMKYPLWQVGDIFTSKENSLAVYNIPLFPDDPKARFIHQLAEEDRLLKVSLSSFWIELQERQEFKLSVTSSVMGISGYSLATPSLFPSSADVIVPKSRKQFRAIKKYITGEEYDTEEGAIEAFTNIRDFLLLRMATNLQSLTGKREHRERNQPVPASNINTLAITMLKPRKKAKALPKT

SMILES	tested on	assay	system	conditions	measurement	result
O=S(=O)(c1ccc(Br)c2nsnc12)N1CCC(Cc2ccccc2)CC1	Histone acetyltransferase RTT109, with Vps75 (Saccharomyces cerevisiae, UniProt Q07794)	enzyme activity, inhibitor, HTS, CPM-based, dose response	–	–	IC50	> 125 µM
CC(NC(=O)C(C#N)=Cc1cccc(F)c1)c1ccccc1 (stereo not shown)	UCHL1	covalent, intact protein LC-MS	–	12.5 µM	labelling	29%
Cl.[2H]C([2H])([2H])CC(=O)c1cnc(NC(=O)C2CC2)cc1Nc1cccc(-c2ncn(C([2H])([2H])[2H])n2)c1OC	–	median	human	oral, 10 mg once daily, day 7, fasted, liquid, multiple dose	Tmax	1.57 h
COc1ccc(C[C@@H](C)[C@@H](C)Cc2ccc(OC)c(OC)c2)cc1OC	–	–	beagle dog female, plasma	oral, 1000 mg/kg/day, day 1, median	Tmax	1 h
CCOc1c([C@H](C)n2nc(C)c3c(N)ncnc32)cc(Cl)c(F)c1[C@@H]1CNC(=O)C1	–	–	patients with indolent lymphoma, plasma	oral, 20 mg, day 15, monotherapy	Tmax	0.5 h
CCCCC1=NC2(CCCC2)C(=O)N1Cc1ccc(-c2ccccc2S(=O)(=O)Nc2noc(C)c2C)c(COCC)c1	–	–	healthy adult volunteers, plasma	oral, 800 mg, single dose, fasted, crushed tablet	Tmax	4.25 h
CCn1cc(C(=O)N2CCOCC2)c(=O)c2cc(NC3Cc4ccccc4C3)cnc21	–	–	human, fed	oral suspension, 2000 mg/day twice daily, day 8, median	Tmax	3 h
Cc1nc(-c2cnc(NC(C)C)n(C)c2=O)ccc1Oc1ccnc(-c2cnn(C)c2)c1	–	–	Beagle dog, male, plasma	oral, 30 mg/kg, crossover study, mean	Tmax	1.33 h
CC#Cc1cncc(-c2ccc3c(c2)[C@@]2(N=C(C)C(N)=N2)[C@]2(CC[C@H](OC)CC2)C3)c1	–	–	beagle dogs, both sexes, plasma	oral, 0.48, 3.4 or 24 µmol/kg daily, 2 weeks	Tmax	2 h
O=c1nc(SCc2cc(F)cc(C(F)(F)F)c2)nc(SCc2ccc3nc(Cl)ccc3c2)[nH]1	TOP2A (Homo sapiens, UniProt P11388)	DNA cleavage	–	15.6 µM, together with: etoposide 50 µM	linear DNA	14.9%
O=C(CCl)Nc1nc(-c2cc(F)ccc2F)cs1	UCHL1	covalent, intact protein LC-MS	–	12.5 µM	labelling	9.83%
Cn1c(C(F)(F)F)cc(=O)n(-c2cc(Oc3cccnc3OCC(=O)O)c(Cl)cc2F)c1=O	–	–	beagle dog, female, plasma	oral capsule, 100 mg/kg/day epyrifenacil, day 1, 90-day study	Tmax	3.5 h
CCN1CCN(Cc2ccc(Nc3ncc(F)c(-c4cc(F)c5nc6n(c5c4)[C@H](C)CCC6)n3)nc2)CC1	–	–	human, plasma	100 mg multiple dosing, median	Tmax	3.98 h
